Experimental data collected from several papers.
Parts stem from different laboratories: compare values within a part only. Positions count from the first letter of the parent shown.

Set 1
Target: Sal-like protein 4, full length isoform A (SALL4, Homo sapiens, UniProt Q9UJQ4, residues 1-1053)
UniProt Q9UJQ4, sequence (whole entry, looked up): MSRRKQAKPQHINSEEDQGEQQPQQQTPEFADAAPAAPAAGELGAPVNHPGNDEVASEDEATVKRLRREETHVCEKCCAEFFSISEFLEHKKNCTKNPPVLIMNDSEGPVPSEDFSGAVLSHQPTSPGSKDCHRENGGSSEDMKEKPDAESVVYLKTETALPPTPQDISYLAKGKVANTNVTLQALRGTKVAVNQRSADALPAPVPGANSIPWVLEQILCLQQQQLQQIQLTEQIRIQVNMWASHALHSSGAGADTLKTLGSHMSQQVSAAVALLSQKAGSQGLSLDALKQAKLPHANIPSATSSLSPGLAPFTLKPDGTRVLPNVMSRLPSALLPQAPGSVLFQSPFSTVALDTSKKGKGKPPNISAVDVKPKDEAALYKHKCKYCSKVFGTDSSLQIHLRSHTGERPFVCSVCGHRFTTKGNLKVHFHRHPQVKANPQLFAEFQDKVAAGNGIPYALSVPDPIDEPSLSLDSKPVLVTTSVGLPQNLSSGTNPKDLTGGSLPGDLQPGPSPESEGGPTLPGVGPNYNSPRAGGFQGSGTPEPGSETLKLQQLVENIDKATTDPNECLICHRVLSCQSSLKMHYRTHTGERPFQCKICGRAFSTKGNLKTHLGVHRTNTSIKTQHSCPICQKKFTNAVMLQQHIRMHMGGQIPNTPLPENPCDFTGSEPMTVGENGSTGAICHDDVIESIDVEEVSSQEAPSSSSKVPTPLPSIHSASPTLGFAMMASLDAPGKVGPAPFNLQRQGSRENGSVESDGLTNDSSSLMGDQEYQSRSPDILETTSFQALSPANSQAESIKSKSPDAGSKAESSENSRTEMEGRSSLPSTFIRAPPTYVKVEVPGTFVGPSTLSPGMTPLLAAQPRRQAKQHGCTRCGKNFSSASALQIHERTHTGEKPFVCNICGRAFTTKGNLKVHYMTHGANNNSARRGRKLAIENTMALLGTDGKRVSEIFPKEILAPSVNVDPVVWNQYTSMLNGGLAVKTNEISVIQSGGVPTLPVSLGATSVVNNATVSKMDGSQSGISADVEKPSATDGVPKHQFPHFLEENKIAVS
Method: universal PBM
Form: double-stranded DNA, one strand shown
Matrix: in vitro
Concentration: 600 nM
Setting: 8-mer, flanks averaged, mean of replicates
Reading: higher = stronger binding
Oligonucleotide | E-score
AAAGGACT | -0.0219
AAATCGCT | 0.0352
ATCCGCTA | -0.0518
TCCAGGAA | -0.0116
AGTCTGAG | -0.114

Set 2
Target: CCNB3, cyclin fold, Cln2 fusion (human)
Method: yeast growth competition, sequencing
Matrix: yeast
Setting: weak parent motif
Reference: not given
Reading: higher = stronger binding
Parent: CDT1 docking peptide (human); PPARRRLRLSVDE; partner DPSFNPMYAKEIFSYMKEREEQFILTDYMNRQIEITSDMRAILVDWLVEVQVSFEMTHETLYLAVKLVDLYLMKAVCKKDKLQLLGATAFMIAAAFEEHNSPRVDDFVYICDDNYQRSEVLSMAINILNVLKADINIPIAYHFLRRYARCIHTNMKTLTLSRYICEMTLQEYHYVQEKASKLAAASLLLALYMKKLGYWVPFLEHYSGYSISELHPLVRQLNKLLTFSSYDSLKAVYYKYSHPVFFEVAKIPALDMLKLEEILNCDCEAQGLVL
Change | normalised enrichment score
PPARARLRLSVDE [R5A] | 0.103
PPARRRLRFSVDE [L9F] | 1.27
PAARRRLRLSVDE [P2A] | 0.223
APARRRLRLSVDE [P1A] | 0.0503
PPARRRLRLSVDA [E13A] | 0.406
PPARRRLALSVDE [R8A] | 0.241
PPARRALRLSVDE [R6A] | 0.256

Set 3
Target: ATF7, bZIP domain (human)
Method: DHFR protein complementation
Matrix: yeast
Setting: single substitutions, most at no-binding floor
Reference: wild-type JUN-FOS pair
Reading: higher = stronger binding
Parent: JUN, bZIP domain (human); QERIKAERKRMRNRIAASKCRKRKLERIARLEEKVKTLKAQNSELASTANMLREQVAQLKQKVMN; partner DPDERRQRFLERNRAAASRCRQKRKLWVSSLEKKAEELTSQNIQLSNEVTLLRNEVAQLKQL
Change | binding fitness [natural log]
Q41C | -1.45
R30N | -0.911
A46C | -1.09
T48H | -1.13
A49W | -1.31

Single results of other studies
Substance | target | test | test system | setting | scale | quantity | result
PhoQ, residues 284 288 289 292 302 303 AQGLTV | PhoP, residues 12 14 15 18 19 VHSCL (Escherichia coli, UniProt P23836) | Sort-seq, refers to: YFP reporter | E. coli | PhoQ-PhoP variant library, with: 10 µM Mg2+ | reference: high Mg2+ state, higher = stronger signaling | fold induction | 0.693
